Assay results of several laboratories.
A part holds a random share of what one study measured.

Study 1
Target: Ras GTPase-activating protein-binding protein 1, full length (G3BP1, Homo sapiens, UniProt Q13283)
Chain of UniProt Q13283 (whole entry, looked up): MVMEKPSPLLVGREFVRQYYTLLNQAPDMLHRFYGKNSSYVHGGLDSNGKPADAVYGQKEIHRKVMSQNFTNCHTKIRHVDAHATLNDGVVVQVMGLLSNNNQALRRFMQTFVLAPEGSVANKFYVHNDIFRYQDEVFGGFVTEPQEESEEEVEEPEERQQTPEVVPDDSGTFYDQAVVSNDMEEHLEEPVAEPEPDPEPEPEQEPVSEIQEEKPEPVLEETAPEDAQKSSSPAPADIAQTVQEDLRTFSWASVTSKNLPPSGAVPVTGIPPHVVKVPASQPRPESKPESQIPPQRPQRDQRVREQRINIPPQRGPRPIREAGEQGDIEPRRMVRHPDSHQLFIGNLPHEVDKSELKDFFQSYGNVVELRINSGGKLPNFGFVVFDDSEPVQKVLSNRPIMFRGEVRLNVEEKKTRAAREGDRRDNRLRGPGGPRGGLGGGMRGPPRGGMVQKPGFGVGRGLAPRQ
Technique: RNA Bind-n-Seq
Form: RNA
Medium: in vitro
Tested at: 200 nM
Notes: whole 134-nt RNA, ends assumed
Added: 150 mM KCl
Reference: input library
Reading: higher = stronger binding
Measurement: log2 enrichment
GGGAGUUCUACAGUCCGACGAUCUUGGCGCAUGCGCCUAAAGCUGACGGGUUUGAAAUGGCUUCGAUGUUAGCCGGGACCCGACUCAGGUGAAGGUCUGGUCCCCGUAGUUGGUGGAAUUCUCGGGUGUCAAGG: -1.15
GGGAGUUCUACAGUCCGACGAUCCACAGACAACACGCACCCACACAGACACAGAGGGAAGGGGUUGGGGUGGGGACAGGGUGCACAGCAGGGCGGGGUAGGACCCCAGCCCCUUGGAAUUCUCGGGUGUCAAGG: 1.66
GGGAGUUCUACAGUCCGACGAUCUAACUUCAGAGGAGGAUCUGAUGGAUAUGGCAGUGGACGUGGAUUUGGGGAUGGCUAUAAUGGGUAUGGAGGAGGACCUGGAGGUGGCAAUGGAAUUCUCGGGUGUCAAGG: 0.364
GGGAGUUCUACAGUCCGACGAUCUUGAACAUCUGCAGGAAAAGAGGCGAGAGGGCACUUUGAGAGUGGAUACCUACACUCUAGUGCAGCCUGAGGCAGAAGACCAUGUUGAGAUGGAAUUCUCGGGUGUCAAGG: -1.04
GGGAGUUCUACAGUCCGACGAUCUCCUCAAGUCCUGUGCUACACAUCGUAUGUACCGAAUCGGAGGAGGGGAGGGAAAGUAUUAUGUUACGCCGUUCGGAUCUGCACUUCCAGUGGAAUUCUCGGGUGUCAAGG: 0.28
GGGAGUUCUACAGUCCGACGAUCCUCAAGUCCUGUGCUACACAUCGUAUGUACCGAAUCGGGGCGGGCGGGGCGGGGAAAGUAUUAUGUUACGCCGUUCGGAUCUGCACUUCCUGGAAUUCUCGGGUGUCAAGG: 1.23
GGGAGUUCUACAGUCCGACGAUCCUCAAGUCCUGUGCUACACAUCGUAUGUACCGAAUCGGUUUUUGGAAAGGAGGAAAGUAUUAUGUUACGCCGUUCGGAUCUGCACUUCCAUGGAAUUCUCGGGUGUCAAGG: -0.458
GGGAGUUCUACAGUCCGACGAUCUGGCCCUCGUGGCAUGCGGGGAGGAAGAGGUGGCCUCAUGGAUCGUGGUGGUCCCGGUGGAAUGUUCAGAGGUGGCCGUGGUGGAGACAGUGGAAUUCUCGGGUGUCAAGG: 0.0948
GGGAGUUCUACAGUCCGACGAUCUCCUGUGCUACACAUCGUAUGUACCGAAUCGGGGUUUUUGGGGAAAAAGGGGAAAGGGGAAAGUAUUAUGUUACGCCGUUCGGAUCUGCAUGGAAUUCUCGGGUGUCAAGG: 0.87

Study 2
Target: Histone acetyltransferase KAT6A, winged helix 1, GST fusion (KAT6A, Homo sapiens, UniProt Q92794, residues 1-85)
Technique: protein binding microarray
Form: double-stranded DNA, one strand shown
Medium: in vitro
Tested at: not given
Notes: 8-mer, flanks averaged, mean of 2 arrays, mostly near background
Reference: not given
Reading: higher = stronger binding
Measurement: E-score
Target sequence (chain): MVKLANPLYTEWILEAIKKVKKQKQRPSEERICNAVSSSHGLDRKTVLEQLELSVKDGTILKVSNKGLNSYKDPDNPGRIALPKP
CAAAGCGG: 0.249
GCCGTTCA: 0.274
AAACCGAT: 0.0143
ATGCTGCC: -0.0409
ATAAAGAG: -0.113
CAAGTCCA: -0.231
GTGGTAAA: -0.271
AGGGACGC: 0.0341
AAGAACTC: -0.138
GTTTGCAA: -0.16
GAACTCAA: -0.252
AACATAGT: -0.0817
ACCAATGC: 0.0586
AGGCGGAA: 0.116
ACAAAACG: 0.0217
ATCGACCA: -0.181
CGATCCAG: -0.0525
GCTAATAA: 0.0199
ACTGAACA: -0.137
AGTATAGG: -0.0986
ATGCTAGG: -0.0345
AATAGGGC: -0.112
GGAAGACC: 0.0624
AGACTCGC: 0.0491
ACATGTAT: -0.0465

Study 3
Target: Centromere-binding protein 1, full length, His-tagged (CBF1, Saccharomyces cerevisiae, UniProt P17106, residues 1-351)
Chain of UniProt P17106 (whole entry, looked up): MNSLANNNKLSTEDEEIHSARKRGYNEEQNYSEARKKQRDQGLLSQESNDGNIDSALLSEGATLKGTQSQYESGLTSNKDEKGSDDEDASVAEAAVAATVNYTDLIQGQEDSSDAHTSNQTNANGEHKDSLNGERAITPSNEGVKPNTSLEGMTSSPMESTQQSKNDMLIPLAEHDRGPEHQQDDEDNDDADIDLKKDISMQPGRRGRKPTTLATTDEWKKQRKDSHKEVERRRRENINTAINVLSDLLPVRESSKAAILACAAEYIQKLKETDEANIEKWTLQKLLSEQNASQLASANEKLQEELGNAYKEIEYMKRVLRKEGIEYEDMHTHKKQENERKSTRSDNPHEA
Technique: competition protein-binding microarray
Form: double-stranded DNA, one strand shown
Medium: in vitro
Tested at: 2 µM
Notes: whole 60-bp probe, lowest competitor level
Added: Pho4 competitor, 0.05 µM
Reading: higher = stronger binding
Measurement: fluorescence intensity
AAAGCGGTAATTTGTCACGTGACTTCACATATCTATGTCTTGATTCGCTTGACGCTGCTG: 30000 a.u.
ATATCCGGTATTTTGCCCGTGATGGTTGGTAACTTCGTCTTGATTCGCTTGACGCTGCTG: 123 a.u.
CGCTCGCCTCATACCCACGGGAATAAGGCAGCCGACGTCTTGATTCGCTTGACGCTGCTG: 57.7 a.u.
TTCATTTCCCAGAGCAGCATGACAGCTTGGTTTCTTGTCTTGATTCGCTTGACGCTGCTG: 75 a.u.
GTTATAAAAGAATGTCCCGTGGTGAAAATGGATGAGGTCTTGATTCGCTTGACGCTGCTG: 275 a.u.
CGGGGTTAAGTTTGCCACGTGTTTTGCTTGCAGCAGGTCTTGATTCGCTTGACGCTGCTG: 1000 a.u.
CTTGTGTTGCTTGGAAGTGTGATGGATACCCATTGTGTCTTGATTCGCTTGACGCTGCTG: 95.7 a.u.
AAAGCGGTAATTTGCAAGGTGGGTGCAGATATCTATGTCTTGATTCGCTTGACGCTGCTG: 67.2 a.u.
TCTTGAAGGAAACGTCACCTGCGCTTGCCGATGTCTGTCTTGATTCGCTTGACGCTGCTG: 93.5 a.u.
CAATTCTTTTACCATCACGTCACCTAACCAACCATTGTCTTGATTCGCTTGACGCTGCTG: 115 a.u.
CCTTTTCTTCTTGCGTACGTGCCGATCAATGCGTCGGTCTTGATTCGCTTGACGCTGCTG: 97.1 a.u.
CCACATAAACATTCACACGTGGAACATGTACCAAAAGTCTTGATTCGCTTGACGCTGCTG: 708 a.u.
TGGTCTAGTCTTACCCACGCACTCGCAGGAACAAACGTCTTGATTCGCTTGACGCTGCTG: 59.1 a.u.
GGCGCAGCGCATCTGCACGTGGTTCCAGGCCGAGCTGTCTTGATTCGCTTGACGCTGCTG: 1010 a.u.

Study 4
Target: Sal-like protein 4, full length isoform B (SALL4, Homo sapiens, UniProt Q9UJQ4-2, residues 1-616)
Technique: universal PBM
Form: double-stranded DNA, one strand shown
Medium: in vitro
Tested at: not given
Notes: 8-mer, flanks averaged, mean of replicates
Reading: higher = stronger binding
Measurement: E-score
Residues (chain): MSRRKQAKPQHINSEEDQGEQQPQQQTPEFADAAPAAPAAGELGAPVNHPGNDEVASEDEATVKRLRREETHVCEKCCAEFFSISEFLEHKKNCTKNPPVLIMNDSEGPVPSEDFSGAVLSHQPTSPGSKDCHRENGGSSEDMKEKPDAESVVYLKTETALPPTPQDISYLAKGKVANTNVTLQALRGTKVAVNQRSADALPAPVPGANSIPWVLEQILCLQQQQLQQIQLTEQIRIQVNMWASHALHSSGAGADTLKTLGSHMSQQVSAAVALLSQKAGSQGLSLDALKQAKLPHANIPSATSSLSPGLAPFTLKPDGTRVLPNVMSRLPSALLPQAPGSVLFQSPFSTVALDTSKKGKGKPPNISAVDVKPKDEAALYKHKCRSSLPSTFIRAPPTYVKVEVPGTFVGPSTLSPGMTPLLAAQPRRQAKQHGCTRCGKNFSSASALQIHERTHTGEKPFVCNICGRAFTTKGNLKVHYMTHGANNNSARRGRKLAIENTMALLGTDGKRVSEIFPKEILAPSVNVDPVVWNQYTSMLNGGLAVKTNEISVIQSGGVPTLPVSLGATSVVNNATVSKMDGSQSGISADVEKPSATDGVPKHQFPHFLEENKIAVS
CGTGCGTA: -0.0843
ACGAGGCC: -0.277
ACTCGATA: 0.113
ACGAAAGT: 0.0761
GATATCGA: 0.14
GCACGCCA: -0.294
ATCTTTTG: 0.131
CGTGCGGA: -0.198
GTACTTAA: 0.185
CGGGCCAG: -0.333
CATCAGTA: 0.183
GTCAATAA: 0.351
ATGAGCCA: 0.0132
AAGAATCG: -0.00374
GAACAGTA: 0.128
TGTTCGAA: 0.0178
CTTTTTTA: 0.167
GATATTTA: 0.38

Study 5
Target: RNA binding protein fox-1 homolog 2, RRM domain, GST-SBP tag (RBFOX2, Homo sapiens, UniProt O43251-10, residues 100-194)
Technique: RNA Bind-n-Seq
Form: RNA
Medium: in vitro
Tested at: 365 nM
Notes: natural RNA segment, single round, ends assumed
Reference: no-protein control
Reading: higher = stronger binding
Measurement: RBNS enrichment (R)
Residues (chain): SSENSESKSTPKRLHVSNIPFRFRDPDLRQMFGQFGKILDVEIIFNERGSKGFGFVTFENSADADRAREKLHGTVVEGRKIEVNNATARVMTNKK
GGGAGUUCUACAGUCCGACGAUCACUGAUAUGCUAUCAUUGAGGUUCAUCAAUGAAUUUGUACAUUUCUAGUUCCCUUUGGUGAAGGGAAAAAUGAUGAUUUUGCAAGACCUAGAUUUUGGCUUGGUUUCUUGUGGAAUUCUCGGGUGCCAA: 0.528
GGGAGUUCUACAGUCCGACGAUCCAAAACCCUGAAGCCAUUGGAGAGCUGUCUUCCUGUGUACCUCUAGAAUCCCAGCAGCAGAGAACCAUCAAGGCGGGAGGGCCUGCAGUGAUUCAGCAGGCCCUUCCCAUUGGAAUUCUCGGGUGCCAA: 0.384
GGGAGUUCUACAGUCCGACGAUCUCACUUAGCAACAAAGUACCUUCUAAUUUCCAAUAGUCCGUGAAAGUUGGGGCUGAAGUACCUAAGUGUGAAUGUCUCUCCCGUUAAACUGAGUGUAGAAAUCUGAAUUUUGGAAUUCUCGGGUGCCAA: 0.393
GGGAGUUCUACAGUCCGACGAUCCUAAGAGCACAAAUUUAGUUUGGGUGUUCCUCAUCACAUGUAUAUAUGGACUAUCCAUCGAACUUAACCUGUGUGGCUUCCAGCCCUCCCUUUACCAAAAGGGUCAAUGGUGGAAUUCUCGGGUGCCAA: 0.249
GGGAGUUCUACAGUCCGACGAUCAGCAGUUGAGGAAAAAAGACAACAUAGGAGUUAUUAAUGUCAAUACCCAUCAACAUAAUCACUCUGACAAUGUUCACGCAUUCAACUAUGAGUUCAUAUGUGGAAGAAAAUGGAAUUCUCGGGUGCCAA: 0.303
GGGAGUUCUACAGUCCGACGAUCGUUGCUGCUCCUGCUUCACCUGUGGCAGACAUCGCUAAUCGAUCACAGCACUCUAUCUCUCAGAGUCUGGAUAAGAAUUCCCAUGCUUGUUGGGACGAGACCAACUGUGCUGGAAUUCUCGGGUGCCAA: 0.716
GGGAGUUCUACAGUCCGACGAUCAUGAAUUAAUUACGUUCCUGAUAGAUCACAGUCAAUCUUCUGAAGAUGAGUUAAAAAUGCCUUGUCUGGAUUAUUGGCAAAUCUUUGUCGGCACAAUCUUUCUGUUCAAAUGGAAUUCUCGGGUGCCAA: 0.36
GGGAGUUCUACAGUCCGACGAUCAUAUAUAUGCUAUAUAUGGACACACUAUUUUCUUAUGUCAUCUAUGGCAUUUUUUUAUCUGUAUACUUUUUGAUGUGGUUGAUUGUUUUUAACAUGCUAAAAGUAAUCCGUGGAAUUCUCGGGUGCCAA: 0.609

Some of these lines once more (study 2):
ACAAAACG: 0.0217
ATCGACCA: -0.181
CGATCCAG: -0.0525
GCTAATAA: 0.0199
ACTGAACA: -0.137
AGTATAGG: -0.0986
ATGCTAGG: -0.0345
AATAGGGC: -0.112
GGAAGACC: 0.0624
AGACTCGC: 0.0491
